Results of several laboratories.
Parts stem from different laboratories: compare values within a part only. “And” joins repeats or separate records; there may be more than shown.
Chain of UniProt P51812 (whole entry, looked up): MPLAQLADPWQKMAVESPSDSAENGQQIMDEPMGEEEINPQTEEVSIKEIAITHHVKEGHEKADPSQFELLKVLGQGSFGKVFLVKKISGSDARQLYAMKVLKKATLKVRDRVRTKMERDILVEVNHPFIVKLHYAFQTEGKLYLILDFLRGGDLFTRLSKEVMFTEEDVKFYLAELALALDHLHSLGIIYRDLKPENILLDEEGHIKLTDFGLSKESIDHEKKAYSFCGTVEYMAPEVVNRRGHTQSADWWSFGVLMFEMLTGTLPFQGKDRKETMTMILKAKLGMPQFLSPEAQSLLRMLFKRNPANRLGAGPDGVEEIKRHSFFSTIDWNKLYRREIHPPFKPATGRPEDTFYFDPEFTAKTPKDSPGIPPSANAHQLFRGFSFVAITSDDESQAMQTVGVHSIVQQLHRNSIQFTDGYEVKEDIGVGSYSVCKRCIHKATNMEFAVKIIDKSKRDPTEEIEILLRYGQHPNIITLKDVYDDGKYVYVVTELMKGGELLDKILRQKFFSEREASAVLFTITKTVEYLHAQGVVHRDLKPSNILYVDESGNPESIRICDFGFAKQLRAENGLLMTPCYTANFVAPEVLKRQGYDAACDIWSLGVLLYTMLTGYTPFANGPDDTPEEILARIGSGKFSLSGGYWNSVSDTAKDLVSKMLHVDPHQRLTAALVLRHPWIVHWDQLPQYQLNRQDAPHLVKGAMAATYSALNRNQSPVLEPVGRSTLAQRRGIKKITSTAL
Chain of UniProt P00519 (whole entry, looked up): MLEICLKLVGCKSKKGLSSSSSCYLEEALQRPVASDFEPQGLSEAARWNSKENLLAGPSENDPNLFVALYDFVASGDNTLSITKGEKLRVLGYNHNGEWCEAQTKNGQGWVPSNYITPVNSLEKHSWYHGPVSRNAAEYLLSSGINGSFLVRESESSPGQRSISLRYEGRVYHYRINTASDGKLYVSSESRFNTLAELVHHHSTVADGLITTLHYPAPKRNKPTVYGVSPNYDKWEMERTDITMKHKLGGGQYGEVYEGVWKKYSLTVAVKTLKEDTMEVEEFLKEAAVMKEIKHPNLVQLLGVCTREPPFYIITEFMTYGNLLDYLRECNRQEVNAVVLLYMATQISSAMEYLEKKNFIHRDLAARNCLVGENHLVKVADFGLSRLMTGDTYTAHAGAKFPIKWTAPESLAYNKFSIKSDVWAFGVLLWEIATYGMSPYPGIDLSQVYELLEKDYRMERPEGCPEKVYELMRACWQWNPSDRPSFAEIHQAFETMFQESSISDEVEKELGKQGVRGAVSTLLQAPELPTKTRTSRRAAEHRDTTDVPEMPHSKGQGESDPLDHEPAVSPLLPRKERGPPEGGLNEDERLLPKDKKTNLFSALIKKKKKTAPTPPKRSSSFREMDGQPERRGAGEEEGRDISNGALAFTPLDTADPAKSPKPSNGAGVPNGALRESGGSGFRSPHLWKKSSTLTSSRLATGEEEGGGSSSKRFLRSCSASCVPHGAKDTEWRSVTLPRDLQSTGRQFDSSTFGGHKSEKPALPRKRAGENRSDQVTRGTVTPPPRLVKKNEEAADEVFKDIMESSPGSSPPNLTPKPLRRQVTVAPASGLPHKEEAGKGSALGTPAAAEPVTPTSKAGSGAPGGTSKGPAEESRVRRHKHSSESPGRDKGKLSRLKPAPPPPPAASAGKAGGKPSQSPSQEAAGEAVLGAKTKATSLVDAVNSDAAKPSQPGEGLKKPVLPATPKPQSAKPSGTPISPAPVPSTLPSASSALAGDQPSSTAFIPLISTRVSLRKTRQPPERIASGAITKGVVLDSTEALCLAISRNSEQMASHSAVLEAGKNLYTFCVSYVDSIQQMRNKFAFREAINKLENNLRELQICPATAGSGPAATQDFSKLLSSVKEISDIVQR
Chain of UniProt P57059 (whole entry, looked up): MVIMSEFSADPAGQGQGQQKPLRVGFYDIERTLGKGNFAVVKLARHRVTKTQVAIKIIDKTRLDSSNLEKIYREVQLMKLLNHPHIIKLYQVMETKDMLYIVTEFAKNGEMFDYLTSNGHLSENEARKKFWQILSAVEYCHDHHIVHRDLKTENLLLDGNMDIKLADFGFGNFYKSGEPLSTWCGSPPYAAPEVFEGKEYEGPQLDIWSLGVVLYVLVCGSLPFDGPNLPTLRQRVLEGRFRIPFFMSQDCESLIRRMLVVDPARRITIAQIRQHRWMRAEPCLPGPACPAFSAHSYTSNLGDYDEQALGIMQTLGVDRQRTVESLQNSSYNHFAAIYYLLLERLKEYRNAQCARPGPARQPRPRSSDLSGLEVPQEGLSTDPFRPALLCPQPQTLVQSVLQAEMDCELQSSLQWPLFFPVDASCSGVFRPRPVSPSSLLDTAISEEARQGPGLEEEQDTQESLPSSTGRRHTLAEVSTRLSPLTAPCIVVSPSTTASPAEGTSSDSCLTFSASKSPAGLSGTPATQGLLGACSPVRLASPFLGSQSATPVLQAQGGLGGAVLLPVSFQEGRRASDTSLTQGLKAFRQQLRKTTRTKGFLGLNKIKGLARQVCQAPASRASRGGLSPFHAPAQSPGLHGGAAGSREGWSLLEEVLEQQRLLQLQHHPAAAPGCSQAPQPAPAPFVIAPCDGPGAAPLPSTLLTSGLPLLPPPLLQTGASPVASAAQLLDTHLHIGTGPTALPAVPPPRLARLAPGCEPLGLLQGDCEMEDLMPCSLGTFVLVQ
Chain of UniProt Q96Q40 (whole entry, looked up): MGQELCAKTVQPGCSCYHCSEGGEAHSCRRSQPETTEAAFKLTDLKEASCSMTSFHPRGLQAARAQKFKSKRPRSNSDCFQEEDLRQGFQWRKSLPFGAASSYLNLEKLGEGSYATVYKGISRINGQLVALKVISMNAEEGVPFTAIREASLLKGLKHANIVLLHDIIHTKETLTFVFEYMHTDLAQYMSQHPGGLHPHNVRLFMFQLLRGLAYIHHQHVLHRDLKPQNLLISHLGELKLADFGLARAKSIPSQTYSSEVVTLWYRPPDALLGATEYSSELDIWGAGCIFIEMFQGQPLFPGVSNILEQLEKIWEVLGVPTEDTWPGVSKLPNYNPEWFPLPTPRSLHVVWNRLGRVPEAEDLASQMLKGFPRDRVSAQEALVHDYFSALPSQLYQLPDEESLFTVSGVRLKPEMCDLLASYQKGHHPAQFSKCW
Chain of UniProt Q86Y07 (whole entry, looked up): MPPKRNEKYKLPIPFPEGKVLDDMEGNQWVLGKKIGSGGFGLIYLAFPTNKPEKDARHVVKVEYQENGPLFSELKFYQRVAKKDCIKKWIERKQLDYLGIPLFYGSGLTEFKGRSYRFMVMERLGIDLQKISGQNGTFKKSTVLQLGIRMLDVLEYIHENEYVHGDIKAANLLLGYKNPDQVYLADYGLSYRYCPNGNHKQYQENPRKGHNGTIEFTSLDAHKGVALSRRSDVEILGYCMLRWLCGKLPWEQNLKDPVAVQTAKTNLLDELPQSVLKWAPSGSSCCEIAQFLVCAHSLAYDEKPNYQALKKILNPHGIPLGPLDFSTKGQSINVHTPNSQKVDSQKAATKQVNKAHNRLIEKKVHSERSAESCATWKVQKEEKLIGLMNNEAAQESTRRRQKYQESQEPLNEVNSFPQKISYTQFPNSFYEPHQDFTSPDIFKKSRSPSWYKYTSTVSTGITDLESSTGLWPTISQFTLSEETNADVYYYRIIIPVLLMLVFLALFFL
Chain of UniProt Q14164 (whole entry, looked up): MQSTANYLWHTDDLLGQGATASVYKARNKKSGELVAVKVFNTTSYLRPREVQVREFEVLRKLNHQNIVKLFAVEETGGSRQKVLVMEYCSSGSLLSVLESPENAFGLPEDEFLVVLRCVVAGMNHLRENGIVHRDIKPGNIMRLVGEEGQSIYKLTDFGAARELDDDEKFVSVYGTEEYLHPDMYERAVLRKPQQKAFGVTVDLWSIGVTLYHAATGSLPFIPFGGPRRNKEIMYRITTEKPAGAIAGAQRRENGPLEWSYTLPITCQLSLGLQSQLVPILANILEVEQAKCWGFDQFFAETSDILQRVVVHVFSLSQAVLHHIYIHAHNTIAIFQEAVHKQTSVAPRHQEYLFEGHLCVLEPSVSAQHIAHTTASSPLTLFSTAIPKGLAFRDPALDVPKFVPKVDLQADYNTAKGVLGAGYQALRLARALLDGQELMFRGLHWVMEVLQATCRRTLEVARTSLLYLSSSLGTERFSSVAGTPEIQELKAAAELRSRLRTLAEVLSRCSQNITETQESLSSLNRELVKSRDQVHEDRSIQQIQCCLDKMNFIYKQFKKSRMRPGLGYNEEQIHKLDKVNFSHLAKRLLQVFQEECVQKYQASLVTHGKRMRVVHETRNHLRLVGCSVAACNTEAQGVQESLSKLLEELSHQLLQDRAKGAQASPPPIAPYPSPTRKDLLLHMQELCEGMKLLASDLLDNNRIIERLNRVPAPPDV
Chain of UniProt Q8N568 (whole entry, looked up): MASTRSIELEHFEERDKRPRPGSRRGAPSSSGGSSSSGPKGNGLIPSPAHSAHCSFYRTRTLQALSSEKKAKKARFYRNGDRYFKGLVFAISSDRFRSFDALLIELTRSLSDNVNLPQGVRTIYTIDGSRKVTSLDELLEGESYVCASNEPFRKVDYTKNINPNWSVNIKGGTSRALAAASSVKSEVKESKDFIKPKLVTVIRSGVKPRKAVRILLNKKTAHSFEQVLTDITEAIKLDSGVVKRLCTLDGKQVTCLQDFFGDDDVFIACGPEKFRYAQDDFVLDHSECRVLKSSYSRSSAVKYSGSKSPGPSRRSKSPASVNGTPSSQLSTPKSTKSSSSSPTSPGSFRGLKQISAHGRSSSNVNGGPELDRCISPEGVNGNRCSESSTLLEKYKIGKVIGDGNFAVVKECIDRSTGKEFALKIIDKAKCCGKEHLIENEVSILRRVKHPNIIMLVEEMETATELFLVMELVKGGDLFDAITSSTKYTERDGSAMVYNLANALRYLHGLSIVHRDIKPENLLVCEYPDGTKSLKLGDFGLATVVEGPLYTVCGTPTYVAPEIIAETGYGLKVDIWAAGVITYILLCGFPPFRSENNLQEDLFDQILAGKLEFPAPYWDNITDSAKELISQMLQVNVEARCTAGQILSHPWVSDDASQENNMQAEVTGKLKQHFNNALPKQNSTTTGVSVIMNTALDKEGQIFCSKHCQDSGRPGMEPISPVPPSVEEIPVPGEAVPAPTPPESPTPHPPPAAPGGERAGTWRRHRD

Sample 1 — organism: Sarcocystis neurona; read-out: parasite growth; tested at: 10 µM
With `CC[C@]1(O)C[C@@H]2CN(CCc3c([nH]c4ccccc34)[C@@](C(=O)OC)(c3cc4c(cc3OC)N(C)[C@H]3[C@@](O)(C(N)=O)[C@H](O)[C@]5(CC)C=CCN6CC[C@]43[C@@H]65)C2)C1` the inhibition was 9.5%.
For `Cc1cn([C@H]2C=C[C@@H](CO)O2)c(=O)[nH]c1=O`, the inhibition was -22% and -28.6%.
For `Cc1[nH]c(=O)c(C#N)cc1-c1ccncc1`, the inhibition was -29.1%.
With `OC[C@H]1O[C@@H](n2cnc3c(NC4CCCC4)nc(Cl)nc32)[C@H](O)[C@@H]1O` the inhibition was -23.6%.
`C=C1/C(=C\C=C2/CCC[C@]3(C)[C@@H]([C@H](C)/C=C/[C@@H](O)C4CC4)CC[C@@H]23)C[C@@H](O)C[C@@H]1O` gave an inhibition of -24.1%.
The inhibition of `CCC(=O)O[C@]1(C(=O)SCF)[C@H](C)C[C@H]2[C@@H]3C[C@H](F)C4=CC(=O)C=C[C@]4(C)[C@@]3(F)[C@@H](O)C[C@@]21C` is reported as 4.1%.
The inhibition of `CN(C)CCN(Cc1ccccc1)c1ccccn1` is reported as -23.5%.
For `Nc1ccn([C@H]2CC[C@@H](CO)O2)c(=O)n1`, the inhibition was -21.3%.
`Cc1nc2n(c(=O)c1CCN1CCC(c3noc4cc(F)ccc34)CC1)CCCC2` has an inhibition of 2.2%.
For `Br.O=C1CC2(CCCC2)CC(=O)N1CCNCC1COc2ccccc2O1` (stereo not shown), the inhibition was 28.4%.
`Oc1c(Cl)cc(Cl)c(Cl)c1Cc1c(O)c(Cl)cc(Cl)c1Cl` gave an inhibition of 80%.
The inhibition of `OCCN1CCN(CCCN2c3ccccc3Sc3ccc(C(F)(F)F)cc32)CC1` is reported as 88%.
For `C[C@]12CCC(=O)C=C1CC[C@@H]1[C@@H]2C(=O)C[C@@]2(C)[C@H]1CC[C@]2(O)C(=O)CO`, the inhibition was 3.8%.

Sample 2 — read-out: enzyme activity; mode: inhibitor; tested at: 0.5 µM; baseline: control
Target: Epidermal growth factor receptor (EGFR, Homo sapiens, UniProt P00533)
The remaining activity of `O=Nc1c(-c2c(O)[nH]c3cc(Br)ccc23)[nH]c2ccccc12` is reported as 89%.
With `O=C1NC(=O)/C(=C/c2ccc3c(c2)OC(F)(F)O3)S1` the remaining activity was 85.1%.
`FC(F)(F)c1ccc(/C=C/c2nc(COc3ccc(CCCCn4ccnn4)cc3)co2)cc1` has a remaining activity of 97.7%.
The remaining activity of `O=C(c1ccccc1)c1ccc(N2CCOCC2)cc1O` is reported as 94.9%.
For `O=C1Nc2ccccc2/C1=C\c1c(Cl)[nH]c2ccccc12`, the remaining activity was 97.5%.
`CCCCc1c(-c2ccc(OC)cc2)[nH]c2nccnc12` has a remaining activity of 103%.
The remaining activity of `O=C(c1cc2cc(O)ccc2[nH]1)c1cc2cc(O)ccc2[nH]1` is reported as 97.6%.
With `Cc1cc(Nc2cc(N3CCN(C)CC3)nc(Sc3ccc(NC(=O)C4CC4)cc3)n2)[nH]n1` the remaining activity was 93.7%.
For `N#C/C(=C(/N)SC1C=CC=CC1)c1cccc(C(O)c2ccncc2)c1` (stereo not shown), the remaining activity was 94.9%.
`CC(C)N(CCC(=O)c1ccc2ccccc2c1)Cc1ccccc1` has a remaining activity of 99.4%.
The remaining activity of `c1ccc2c(-c3ccncc3)c[nH]c2c1` is reported as 97.3%.
The remaining activity of `O=C1Nc2ccc(Br)cc2/C1=C/c1cc2c([nH]1)CCCC2` is reported as 87.4%.
The remaining activity of `CCN(CC)CCCCN1c2ccccc2Oc2ccc(Cl)cc21` is reported as 99.2%.
`O=c1c(-c2ccc(F)cc2)c(-c2ccncc2)[nH]n1-c1ccc(Cl)cc1` gave a remaining activity of 57.7%.
`COc1ccc2c(c1)c(C1=C(c3c[nH]c4ccccc34)C(=O)NC1=O)cn2CCCN(C)C` gave a remaining activity of 92.6%.

Sample 3 — cell line: mouse MPNST tumor cells; method: high-content nuclear imaging; item: cell number; tested at: 10 µM; time: 12 h; notes: mean of 2 replicates; baseline: plate mean; direction: higher = more cells
With `N/C(=N\C(=O)c1nc(Cl)c(N)nc1N)NCc1ccccc1` the nuclei count was 2.5 z-score and 3.23 z-score.
The nuclei count of `Nc1nc(NCc2ccccc2)nc(-c2ccccc2CO)n1` is reported as 0.322 z-score.
With `Cc1c(N(C)C)c(=O)n(-c2ccccc2)n1C` the nuclei count was 3.1 z-score.
`Cc1ncc(CO)c(CO)c1O` gave a nuclei count of 1.3 z-score.
The nuclei count of `O=C1C=CC(=O)C2=C1C1c3ccccc3C2c2ccccc21` is reported as -0.755 z-score.
`COc1ccc2[nH]cc(CCNC(C)=O)c2c1` has a nuclei count of 0.123 z-score and 0.756 z-score.
With `NC[C@@H]1O[C@@H](O[C@H]2[C@H](O)[C@@H](O[C@H]3O[C@H](CO)[C@@H](O)[C@H](N)[C@H]3O)[C@H](N)C[C@@H]2N)[C@@H](O)[C@H](O)[C@H]1O` the nuclei count was 0.611 z-score.
With `CC1(C)N=C(N)N=C(N)N1c1ccc(Cl)cc1` the nuclei count was -1.69 z-score.
With `OCCN1CCN(CC/C=C2/c3ccccc3Sc3ccc(Cl)cc32)CC1` the nuclei count was -4.37 z-score.

Sample 4 — tested at: 1 µM
SMILES: CN(C)c1ncnc(-c2ccc3nc(Nc4cc(CN5CCN(C(=O)CC(F)(F)F)CC5)ccn4)[nH]c3c2)c1Cl
The remaining binding was 100% (Serine/threonine-protein kinase Nek7 (NEK7, Homo sapiens, UniProt Q8TDX7); cell-free assay, competition with immobilised ligand).
The remaining binding was 92% (Serine/threonine-protein kinase RIO3 (RIOK3, Homo sapiens, UniProt O14730); cell-free assay, competition with immobilised ligand).
The remaining binding was 88% (Serine/threonine-protein kinase VRK2 (VRK2, Homo sapiens, UniProt Q86Y07); cell-free assay, competition with immobilised ligand).
Activin receptor type-2A (ACVR2A, Homo sapiens, UniProt P27037); cell-free assay, competition with immobilised ligand — remaining binding: 90%.
Serine/threonine-protein kinase DCLK2 (DCLK2, Homo sapiens, UniProt Q8N568); cell-free assay, competition with immobilised ligand — remaining binding: 100%.
Cyclin-dependent kinase 15 (CDK15, Homo sapiens, UniProt Q96Q40); cell-free assay, competition with immobilised ligand — remaining binding: 100%.
The remaining binding was 100% (Epidermal growth factor receptor (EGFR, Homo sapiens, UniProt P00533, del747-752/P753S); cell-free assay, competition with immobilised ligand).
Serine/threonine-protein kinase Sgk2 (SGK2, Homo sapiens, UniProt Q9HBY8); cell-free assay, competition with immobilised ligand — remaining binding: 43%.
It gave 13% for remaining binding (Inhibitor of nuclear factor kappa-B kinase subunit epsilon (IKBKE, Homo sapiens, UniProt Q14164); binder, KINOMEscan competition binding; baseline: DMSO).
It gave 100% for remaining binding (MAP kinase-activated protein kinase 2 (MAPKAPK2, Homo sapiens, UniProt P49137); cell-free assay, competition with immobilised ligand).
The remaining binding was 94% (Serine/threonine-protein kinase SIK1 (SIK1, Homo sapiens, UniProt P57059); competition binding).
For Tyrosine-protein kinase ABL1, phosphorylated (ABL1, Homo sapiens, UniProt P00519); cell-free assay, competition with immobilised ligand: remaining binding read 51%.
Tyrosine-protein kinase Blk (BLK, Homo sapiens, UniProt P51451); cell-free assay, competition with immobilised ligand — remaining binding: 82%.
The remaining binding was 7% (Receptor-type tyrosine-protein kinase FLT3 (FLT3, Homo sapiens, UniProt P36888, D835V); cell-free assay, competition with immobilised ligand).
It gave 87% for remaining binding (Ribosomal protein S6 kinase alpha-3, C-terminal kinase domain (RPS6KA3, Homo sapiens, UniProt P51812); cell-free assay, competition with immobilised ligand).
